Measured values pooled from the literature.
A part holds a random share of what one study measured. Changes are numbered by the printed parent chain.

Series 1 — method: protein-binding microarray; molecule type: double-stranded DNA, one strand shown; sample: in vitro; concentration: 250 nM; setting: 60-bp whole probe; with: salmon DNA 0.4 mg/ml; reference: random background probes; reading: higher = stronger binding; shared flanks, not repeated: GCCTAGCAC … GTCTTGATTCGCTTGACGCTGCTG
Target: Interferon regulatory factor 5, full length, phosphomimetic (IRF5, Homo sapiens, UniProt Q13568-2, residues 1-514, K96S/S451D/S453D/S456D/S462D)
`CTCAAGATTCCTCTCACCTCGTGCTAG` gave a log fluorescence of 0.14 z-score.
`TTAGCTATCCTTCTCCTTTAGTGCTAG` gave a log fluorescence of 0.354 z-score.
The log fluorescence of `TTAGGTTTAGGTATCGGTTAGTGCTAG` is reported as 5.67 z-score.
`GACGGTATCGGGAATGGGGACGTGCTA` gave a log fluorescence of 1.48 z-score.
For `GACGATCTCAGTCTCGAGTCGTGCTAG`, the log fluorescence was -0.0637 z-score.
For `TGAGAACTGGGGTTTCGATTAGTGCTA`, the log fluorescence was 5.43 z-score.
For `TTAGGTTTCGACACCGGGTTAGTGCTA`, the log fluorescence was 5.78 z-score.
The log fluorescence of `TCTTGTCTGGATGTGCCTTAGTGCTAG` is reported as -0.256 z-score.
For `GATGGTATCGGTCTCGGGACGTGCTAG`, the log fluorescence was 6.75 z-score.
`TTAGGTATCGACTTTCGGTCAGTGCTA` has a log fluorescence of 9.85 z-score.
The log fluorescence of `GCACATGAGCCAAGCCTGCCGTGCTAG` is reported as -0.695 z-score.
For `TTAGATATCCGTATCGATTAGTGCTAG`, the log fluorescence was 4.58 z-score.
`GACGGTATCGGCTTTCGGGACGTGCTA` has a log fluorescence of 4.61 z-score.
For `GACGGTTTCGGTCTCGGGAAGTGCTAG`, the log fluorescence was 9.72 z-score.
`GACAATCTCAGACTGGAGACGTGCTAG` gave a log fluorescence of -0.33 z-score.
The log fluorescence of `TCAGTCCTCTCTCTATTACTGTGCTAG` is reported as 0.249 z-score.
`GACGGACTGGTTCTCGGGACGTGCTAG` has a log fluorescence of -0.514 z-score.
With `GACGGTAACCTACTGCTGACGTGCTAG` the log fluorescence was -0.355 z-score.
`GACGGACTGGGACTGGGTACGTGCTAG` gave a log fluorescence of -0.585 z-score.
With `TTAGGTTCCCTTTTCCGTTAGTGCTAG` the log fluorescence was 0.723 z-score.
`GCCGAACTGAGACTGGAGACGTGCTAG` gave a log fluorescence of -0.494 z-score.
The log fluorescence of `GACGATGTCGGGTTTCGAGACGTGCTA` is reported as 1.49 z-score.
The log fluorescence of `GACGAACTGATTTTCGAGACGTGCTAG` is reported as 1.46 z-score.
With `GACGGTTTCGACACTGGCGACGTGCTA` the log fluorescence was 4.82 z-score.
`TCAGATTTCGATTACAAACTGTGCTAG` gave a log fluorescence of 6.25 z-score.

Series 2 — method: DHFR PCA, deep sequencing; sample: yeast; with: (+)-ABA 2500 µM; reference: wild-type fitted maximum; reading: higher = stronger binding
Target: ABI1, truncated, D143A, DHFR fusion (Arabidopsis thaliana)
Setting: methotrexate growth selection, single substitutions
Starting sequence: PYL1, truncated, DHFR fusion (Arabidopsis thaliana); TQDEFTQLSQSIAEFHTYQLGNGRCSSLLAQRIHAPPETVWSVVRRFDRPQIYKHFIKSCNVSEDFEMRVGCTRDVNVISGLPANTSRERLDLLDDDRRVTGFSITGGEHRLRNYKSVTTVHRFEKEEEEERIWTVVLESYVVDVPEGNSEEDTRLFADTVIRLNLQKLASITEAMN
Under “relative binding score”, `T106N` is recorded as 93.4%.
`G21H`: “relative binding score” 93.8%.
`T173K` — result for “relative binding score”: 56.9%.
`T173P` — result for “relative binding score”: 66.9%.
Under “relative binding score”, `E14Y` is recorded as 79.8%.
For `T160N`, “relative binding score” read 92.8%.
For `T160Q`, “relative binding score” read 94.6%.
For `T119G`, “relative binding score” read 2.31%.
`F124W` — result for “relative binding score”: 104%.
`V145T` — result for “relative binding score”: 93.4%.
`Q19Y`: “relative binding score” 101%.
Under “relative binding score”, `D95W` is recorded as 80.8%.
For `R155C`, “relative binding score” read 95.5%.
`I52N`: “relative binding score” 95.9%.

Series 3 — method: universal PBM; molecule type: double-stranded DNA, one strand shown; sample: in vitro; concentration: 600 nM; reading: higher = stronger binding
Target: Sal-like protein 4, full length isoform A (SALL4, Homo sapiens, UniProt Q9UJQ4, residues 1-1053)
Chain of UniProt Q9UJQ4 (whole entry, looked up): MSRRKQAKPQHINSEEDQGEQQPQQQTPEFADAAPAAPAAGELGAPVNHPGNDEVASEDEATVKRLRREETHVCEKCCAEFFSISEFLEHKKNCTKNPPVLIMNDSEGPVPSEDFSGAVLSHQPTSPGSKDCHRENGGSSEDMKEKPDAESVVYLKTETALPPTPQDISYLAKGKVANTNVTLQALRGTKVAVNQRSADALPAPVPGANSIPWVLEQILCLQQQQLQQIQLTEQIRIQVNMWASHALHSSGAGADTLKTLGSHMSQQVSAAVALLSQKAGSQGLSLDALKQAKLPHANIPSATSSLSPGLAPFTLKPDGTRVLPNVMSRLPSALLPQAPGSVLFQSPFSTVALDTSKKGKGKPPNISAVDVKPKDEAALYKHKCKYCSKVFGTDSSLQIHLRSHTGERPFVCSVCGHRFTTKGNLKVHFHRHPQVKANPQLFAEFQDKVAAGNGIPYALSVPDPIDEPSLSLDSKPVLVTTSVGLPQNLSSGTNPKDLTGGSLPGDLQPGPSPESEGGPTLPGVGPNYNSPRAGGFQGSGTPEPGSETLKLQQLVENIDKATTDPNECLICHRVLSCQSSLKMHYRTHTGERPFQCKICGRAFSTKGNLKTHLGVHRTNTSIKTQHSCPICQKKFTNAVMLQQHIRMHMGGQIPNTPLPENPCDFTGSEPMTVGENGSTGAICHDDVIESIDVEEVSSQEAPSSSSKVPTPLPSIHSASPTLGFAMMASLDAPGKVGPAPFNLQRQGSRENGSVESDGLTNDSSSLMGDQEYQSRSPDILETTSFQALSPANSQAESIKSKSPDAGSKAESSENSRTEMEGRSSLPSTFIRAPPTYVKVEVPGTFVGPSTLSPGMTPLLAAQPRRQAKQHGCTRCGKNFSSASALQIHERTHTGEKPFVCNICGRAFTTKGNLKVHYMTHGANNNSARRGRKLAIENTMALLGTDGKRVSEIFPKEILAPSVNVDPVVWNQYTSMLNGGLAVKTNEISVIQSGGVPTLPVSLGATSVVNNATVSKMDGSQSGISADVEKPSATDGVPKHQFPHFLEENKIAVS
Setting: 8-mer, flanks averaged, mean of replicates
With `CGAAGCCC` the E-score was -0.248.
`ACGTAATC` has an E-score of 0.106.
With `ATCTCCTA` the E-score was 0.01.
For `CTGAGAAC`, the E-score was -0.0369.
With `ACGAACGT` the E-score was 0.0119.
With `GGGGGGGA` the E-score was -0.391.
For `GGGAGAGA`, the E-score was -0.153.
The E-score of `ACGCTTTC` is reported as -0.0836.
The E-score of `AAGTACAT` is reported as 0.164.
`AAAGAACG` has an E-score of 0.099.
The E-score of `AAGTTATC` is reported as 0.15.
With `AGGTTTGA` the E-score was -0.0826.
`AAGTGAGT` has an E-score of -0.0706.
`CTAGGTTA` has an E-score of 0.167.
The E-score of `GGGAGAAA` is reported as 0.00302.
With `CCTGTTCA` the E-score was -0.092.
For `GGAAGGAC`, the E-score was -0.111.
`GGGATGCA` has an E-score of -0.0915.
The E-score of `AGGTCTGA` is reported as -0.0468.
With `AGCTCCAA` the E-score was 0.014.
For `CACGTGCC`, the E-score was -0.169.
For `ACTCTTAG`, the E-score was -0.00094.

Series 4 — method: RNA Bind-n-Seq; molecule type: RNA; sample: in vitro; concentration: 200 nM; setting: whole 134-nt RNA, ends assumed; with: 150 mM KCl; reference: input library; reading: higher = stronger binding
Target: Fragile X messenger ribonucleoprotein 1, C-terminal low-complexity region (Fmr1, Mus musculus, UniProt P35922)
Shared flanks, not repeated: GGGAGUUCUACAGUCCGACGAUC … UGGAAUUCUCGGGUGUCAAGG
`UCCUCAAGUCCUGUGCUACACAUCGUAUGUACCGAAUCGGUUUGGAGGUGGAAAGUAUUAUGUUACGCCGUUCGGAUCUGCACUUCCAGC` has a log2 enrichment of -0.591.
`AAGUCCUGUGCUACACAUCGUAUGUACCGAAUCGGGGCCCCGGGCCCCGGCCCCGGGAAAGUAUUAUGUUACGCCGUUCGGAUCUGCACU` gave a log2 enrichment of -0.719.
`ACCAUGCAGGUGGGCAUCUUUGGGAAGUGGGGCAAGGGGGGGAUAUGGAGGGGGGUAACACUUUGGGAACAGGUGGUCCCAGGUCGUUUC` gave a log2 enrichment of 0.618.
`GUCCUGUGCUACACAUCGUAUGUACCGAAUCGGUUUUUGGGUUUUUGGGUUUUUGGGGAAAGUAUUAUGUUACGCCGUUCGGAUCUGCAC` has a log2 enrichment of -0.0453.
`UCCUGUGCUACACAUCGUAUGUACCGAAUCGGGGAGGGGUUUUUUUGGGGUUUUUGGGGAAAGUAUUAUGUUACGCCGUUCGGAUCUGCA` gave a log2 enrichment of 0.827.
With `UGCCGAUUCGGAAGUCCUUGAGGAGCGUCAGAAGCGGCUUCCCUACGUCCCAGAGCCCUAUUACCCGGAAUCUGGAUGGGACCGCCUCCG` the log2 enrichment was -0.489.
For `UCCUGUGCUACACAUCGUAUGUACCGAAUCGGGUUUUUUUGGUUUUUUUGGUUUUUUUGGAAAGUAUUAUGUUACGCCGUUCGGAUCUGC`, the log2 enrichment was -0.0811.
`UGGCCCUGGUGGCUUGCGGGGAGGAAGAGGUGGCCUCAUGGAUCGUGGUGGUCCCGGUGGAAUGUUCAGAGGUGGCCGUGGUGGAGACAG` has a log2 enrichment of 0.121.
`AAGUCCUGUGCUACACAUCGUAUGUACCGAAUCGGCCCCCGGGCCCCCGGCCCCCGGAAAGUAUUAUGUUACGCCGUUCGGAUCUGCACU` gave a log2 enrichment of -0.389.
`AGUCCUGUGCUACACAUCGUAUGUACCGAAUCAAACCCCCCCAAAUUUAAAUUUAAAAAAGUAUUAUGUUACGCCGUUCGGAUCUGCACU` has a log2 enrichment of 0.298.

Series 5 — method: protein binding microarray; molecule type: double-stranded DNA, one strand shown; sample: in vitro; concentration: not given; reference: not given; reading: higher = stronger binding
Target: Histone acetyltransferase KAT6A, both winged helices, GST fusion (KAT6A, Homo sapiens, UniProt Q92794, residues 1-181)
Setting: 8-mer, flanks averaged, mean of 2 arrays, mostly near background
Construct (chain): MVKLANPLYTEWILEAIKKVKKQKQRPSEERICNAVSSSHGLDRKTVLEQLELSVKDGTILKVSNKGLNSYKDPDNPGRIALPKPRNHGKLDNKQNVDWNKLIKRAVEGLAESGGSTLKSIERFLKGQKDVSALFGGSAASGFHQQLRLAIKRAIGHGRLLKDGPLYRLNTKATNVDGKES
For `CAGAAGTA`, the E-score was -0.107.
With `ACAGGGGT` the E-score was -0.181.
For `CGCCAACC`, the E-score was 0.113.
With `AAGGCGGG` the E-score was 0.17.
The E-score of `GCTATCAC` is reported as 0.0774.
`CCATTCCG` has an E-score of 0.0714.
With `CCCCAAGA` the E-score was -0.184.
For `AATGAACT`, the E-score was -0.0518.
`CAGCAGCG` has an E-score of 0.0963.
For `GACGAGTA`, the E-score was -0.035.
The E-score of `AACAGGAC` is reported as -0.157.
`CAGGCATA` gave an E-score of -0.114.
`GGACGTCC` gave an E-score of 0.0188.
The E-score of `CCTTGGGA` is reported as -0.111.
For `CTGACCTC`, the E-score was -0.102.
`AGCACTTA` has an E-score of -0.203.
`AGCTTTAC` has an E-score of -0.144.
The E-score of `ACGCTTCC` is reported as 0.26.
For `TCACTGCA`, the E-score was -0.0886.

Series 6 — target: CCND2, cyclin fold, Cln2 fusion (human); method: yeast growth competition, sequencing; sample: yeast; setting: weak parent motif; reference: not given; reading: higher = stronger binding
Starting sequence: RBL2 docking peptide (human); STTRRRLFVENDS; partner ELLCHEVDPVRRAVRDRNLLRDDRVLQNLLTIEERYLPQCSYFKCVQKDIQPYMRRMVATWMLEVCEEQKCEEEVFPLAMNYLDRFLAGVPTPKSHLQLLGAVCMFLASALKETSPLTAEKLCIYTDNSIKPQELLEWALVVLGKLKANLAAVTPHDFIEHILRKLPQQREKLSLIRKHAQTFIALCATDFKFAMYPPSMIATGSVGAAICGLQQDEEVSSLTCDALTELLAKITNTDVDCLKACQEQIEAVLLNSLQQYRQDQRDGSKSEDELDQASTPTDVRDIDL
`F8W`: “normalised enrichment score” -0.0307.
`T2Q` — result for “normalised enrichment score”: 0.391.
`T3Y` — result for “normalised enrichment score”: 0.554.
For `R6E`, “normalised enrichment score” read 0.494.
`T3W`: “normalised enrichment score” 0.0279.
For `V9C`, “normalised enrichment score” read 0.414.
For `T3H`, “normalised enrichment score” read -0.0368.
`R6G`: “normalised enrichment score” -0.374.
Under “normalised enrichment score”, `V9S` is recorded as 0.0161.
For `T2F`, “normalised enrichment score” read -0.0537.
For `F8I`, “normalised enrichment score” read 0.25.
For `S1L`, “normalised enrichment score” read -0.0262.
For `S1I`, “normalised enrichment score” read 0.156.
Under “normalised enrichment score”, `V9L` is recorded as 0.295.
Under “normalised enrichment score”, `L7G` is recorded as -0.594.

For quick reference, copied from above (series 6):
`T3Y` — result for “normalised enrichment score”: 0.554.
For `R6E`, “normalised enrichment score” read 0.494.
`T3W`: “normalised enrichment score” 0.0279.
For `V9C`, “normalised enrichment score” read 0.414.
For `T3H`, “normalised enrichment score” read -0.0368.
`R6G`: “normalised enrichment score” -0.374.
Under “normalised enrichment score”, `V9S` is recorded as 0.0161.
For `T2F`, “normalised enrichment score” read -0.0537.
For `F8I`, “normalised enrichment score” read 0.25.
For `S1L`, “normalised enrichment score” read -0.0262.
For `S1I`, “normalised enrichment score” read 0.156.
Under “normalised enrichment score”, `V9L` is recorded as 0.295.
Under “normalised enrichment score”, `L7G` is recorded as -0.594.
